# Published values from different studies.
# Every numbered part comes from another study and shows a few of its results, in no order. “And” joins repeats or separate records; there may be more than shown.
# Sequence of UniProt Q02750 (whole entry, looked up): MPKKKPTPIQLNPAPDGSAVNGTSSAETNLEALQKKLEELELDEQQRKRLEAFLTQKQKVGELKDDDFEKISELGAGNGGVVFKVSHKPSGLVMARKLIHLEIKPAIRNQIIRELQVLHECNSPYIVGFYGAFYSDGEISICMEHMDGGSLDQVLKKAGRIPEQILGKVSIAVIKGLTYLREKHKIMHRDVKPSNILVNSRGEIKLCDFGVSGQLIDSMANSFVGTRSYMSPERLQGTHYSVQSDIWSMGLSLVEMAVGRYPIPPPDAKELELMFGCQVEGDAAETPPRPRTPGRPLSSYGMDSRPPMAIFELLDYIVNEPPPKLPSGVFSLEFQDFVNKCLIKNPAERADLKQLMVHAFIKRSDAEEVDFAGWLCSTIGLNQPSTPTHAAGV
# Sequence of UniProt P42679 (whole entry, looked up): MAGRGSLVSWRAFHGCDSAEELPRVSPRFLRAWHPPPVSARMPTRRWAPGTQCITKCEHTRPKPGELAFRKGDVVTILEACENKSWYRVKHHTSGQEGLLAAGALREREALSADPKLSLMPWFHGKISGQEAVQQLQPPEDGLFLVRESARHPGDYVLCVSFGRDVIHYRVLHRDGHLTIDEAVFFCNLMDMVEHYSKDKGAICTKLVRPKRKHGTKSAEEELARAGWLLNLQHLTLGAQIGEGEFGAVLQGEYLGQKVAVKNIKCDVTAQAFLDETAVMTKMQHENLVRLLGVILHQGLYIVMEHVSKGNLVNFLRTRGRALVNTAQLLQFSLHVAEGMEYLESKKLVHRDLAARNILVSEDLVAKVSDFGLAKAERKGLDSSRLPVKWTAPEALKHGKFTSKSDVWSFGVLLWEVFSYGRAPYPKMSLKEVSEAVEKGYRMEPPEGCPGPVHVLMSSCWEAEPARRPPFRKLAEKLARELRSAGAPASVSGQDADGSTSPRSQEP
# Sequence of UniProt Q96L34 (whole entry, looked up): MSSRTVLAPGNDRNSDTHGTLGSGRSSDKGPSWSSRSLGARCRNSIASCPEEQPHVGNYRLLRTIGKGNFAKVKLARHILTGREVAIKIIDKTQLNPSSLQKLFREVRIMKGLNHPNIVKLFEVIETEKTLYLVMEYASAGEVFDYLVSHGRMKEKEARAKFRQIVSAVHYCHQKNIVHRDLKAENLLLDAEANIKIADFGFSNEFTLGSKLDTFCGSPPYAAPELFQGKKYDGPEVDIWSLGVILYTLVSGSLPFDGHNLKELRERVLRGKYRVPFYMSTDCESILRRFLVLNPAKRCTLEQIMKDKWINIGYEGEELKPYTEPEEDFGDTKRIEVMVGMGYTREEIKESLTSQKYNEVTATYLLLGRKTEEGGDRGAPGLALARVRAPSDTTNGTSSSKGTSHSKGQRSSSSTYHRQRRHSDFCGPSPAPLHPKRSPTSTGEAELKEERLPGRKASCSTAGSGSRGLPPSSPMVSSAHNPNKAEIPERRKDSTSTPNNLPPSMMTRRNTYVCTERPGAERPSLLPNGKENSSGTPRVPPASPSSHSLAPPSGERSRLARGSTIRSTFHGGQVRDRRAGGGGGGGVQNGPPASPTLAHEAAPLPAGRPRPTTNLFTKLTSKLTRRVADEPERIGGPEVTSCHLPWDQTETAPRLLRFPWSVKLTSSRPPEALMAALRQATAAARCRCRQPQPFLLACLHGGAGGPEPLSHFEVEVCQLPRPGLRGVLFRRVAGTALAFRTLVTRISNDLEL
# Sequence of UniProt P48730 (whole entry, looked up): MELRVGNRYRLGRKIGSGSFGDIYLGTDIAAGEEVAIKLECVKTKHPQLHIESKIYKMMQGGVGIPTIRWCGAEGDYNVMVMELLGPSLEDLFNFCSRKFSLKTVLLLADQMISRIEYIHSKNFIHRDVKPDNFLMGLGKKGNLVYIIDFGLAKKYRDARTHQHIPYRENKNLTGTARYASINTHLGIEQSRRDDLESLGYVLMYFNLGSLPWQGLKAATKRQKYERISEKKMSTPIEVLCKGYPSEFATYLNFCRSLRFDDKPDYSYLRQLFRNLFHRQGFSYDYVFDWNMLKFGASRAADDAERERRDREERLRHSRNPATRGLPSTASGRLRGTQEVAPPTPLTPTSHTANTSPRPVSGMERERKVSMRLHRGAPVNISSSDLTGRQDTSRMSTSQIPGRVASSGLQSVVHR

# Study 1
# Compound: C=CCc1ccc(O)c(-c2cc(CC=C)ccc2O)c1
# ANO1 del476-501/E649A: Anoctamin-1 (ANO1, Homo sapiens, UniProt Q5XXA6, del476-501/E649A)
# Sequence of UniProt Q5XXA6 (whole entry, unmodified, looked up): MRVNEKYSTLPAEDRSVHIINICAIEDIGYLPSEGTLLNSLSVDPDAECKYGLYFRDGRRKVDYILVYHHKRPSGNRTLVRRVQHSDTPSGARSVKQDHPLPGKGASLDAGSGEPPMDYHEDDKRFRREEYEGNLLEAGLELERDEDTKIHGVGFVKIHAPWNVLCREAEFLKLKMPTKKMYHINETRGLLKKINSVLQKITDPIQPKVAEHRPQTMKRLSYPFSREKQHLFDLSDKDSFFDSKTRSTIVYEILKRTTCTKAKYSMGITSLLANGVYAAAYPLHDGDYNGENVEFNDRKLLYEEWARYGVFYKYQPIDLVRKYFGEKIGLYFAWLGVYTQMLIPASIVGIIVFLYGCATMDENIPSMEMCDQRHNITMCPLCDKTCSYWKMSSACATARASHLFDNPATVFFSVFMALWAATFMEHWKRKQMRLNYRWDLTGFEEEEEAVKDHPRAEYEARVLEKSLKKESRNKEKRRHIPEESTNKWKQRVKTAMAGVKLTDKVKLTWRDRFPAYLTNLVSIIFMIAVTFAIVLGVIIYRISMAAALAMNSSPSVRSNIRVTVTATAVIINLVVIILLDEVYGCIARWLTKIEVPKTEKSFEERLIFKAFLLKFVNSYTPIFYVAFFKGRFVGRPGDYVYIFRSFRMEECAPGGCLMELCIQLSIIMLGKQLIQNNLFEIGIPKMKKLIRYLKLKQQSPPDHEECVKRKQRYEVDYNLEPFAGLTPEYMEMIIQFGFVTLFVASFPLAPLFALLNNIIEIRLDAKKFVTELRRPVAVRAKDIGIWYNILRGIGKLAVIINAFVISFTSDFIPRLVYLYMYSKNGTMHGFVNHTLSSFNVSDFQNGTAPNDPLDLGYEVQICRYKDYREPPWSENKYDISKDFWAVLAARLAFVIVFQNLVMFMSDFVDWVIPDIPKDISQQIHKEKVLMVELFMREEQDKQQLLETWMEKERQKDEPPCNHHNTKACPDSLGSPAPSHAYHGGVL
# ANO1 del476-501/R541A: Anoctamin-1 (ANO1, Homo sapiens, UniProt Q5XXA6, del476-501/R541A)
target,test,setting,normalized current
ANO1 del476-501/E649A,"ion current, inside-out patch clamp","30 µM, E623A mutant at -60 mV",-0.374
"Anoctamin-1 (ANO1, Homo sapiens, UniProt Q5XXA6, del476-501/E659A/K629A)","chloride current, inside-out patch clamp","30 µM, membrane voltage -20 mV",-0.122
"Anoctamin-1 (ANO1, Homo sapiens, UniProt Q5XXA6, del476-501/K629A)","chloride current, inside-out patch clamp","30 µM, membrane voltage 0 mV",0.0008
ANO1 del476-501/R541A,"chloride current, whole-cell voltage clamp","10 µM, membrane voltage 0 mV, together with: 4 µM Ca2+ (saturating)",-0.0042
ANO1 del476-501/E649A,"ion current, inside-out patch clamp","30 µM, E623A mutant at 0 mV",-0.0002
"Anoctamin-1 (ANO1, Homo sapiens, UniProt Q5XXA6, del476-501/E659A)","chloride current, inside-out patch clamp","30 µM, membrane voltage 60 mV",0.444
ANO1 del476-501/E649A,"chloride current, inhibitor, whole-cell voltage clamp","3 µM, E623A mutant",1
ANO1 del476-501/R541A,"chloride current, inside-out patch clamp","30 µM, membrane voltage 100 mV",0.752
ANO1 del476-501/E649A,"chloride current, inhibitor, whole-cell voltage clamp","100 µM, E623A mutant",0.47

# Study 2
# SMILES: CC(C)S(=O)(=O)c1ccc2nccc(Nc3ccc4sc(C5CCCC5)nc4c3)c2c1.Cl
# Read-out: kinase activity
# Action: inhibitor
# Concentration: 1 µM
target,remaining activity
"MATK (Homo sapiens, UniProt P42679)",98% and 120%
"PAK2 (Homo sapiens, UniProt Q13177)",93%
"PRKCZ (Homo sapiens, UniProt Q05513)",121%
"ATM (Homo sapiens, UniProt Q13315)",99%
"STK39 (Homo sapiens, UniProt Q9UEW8)",99%
"TTBK2 (Homo sapiens, UniProt Q6IQ55)",94%
"BRSK2 (Homo sapiens, UniProt Q8IWQ3)",104%
"MAP2K1 (Homo sapiens, UniProt Q02750)",105%
"NEK6 (Homo sapiens, UniProt Q9HC98)",93%
"TLK2 (Homo sapiens, UniProt Q86UE8)",87%
"FGFR3 (Homo sapiens, UniProt P22607)",92%

# Study 3
# Target: MAP kinase-activated protein kinase 3 (MAPKAPK3, Homo sapiens, UniProt Q16644)
# Sequence of UniProt Q16644 (whole entry, looked up): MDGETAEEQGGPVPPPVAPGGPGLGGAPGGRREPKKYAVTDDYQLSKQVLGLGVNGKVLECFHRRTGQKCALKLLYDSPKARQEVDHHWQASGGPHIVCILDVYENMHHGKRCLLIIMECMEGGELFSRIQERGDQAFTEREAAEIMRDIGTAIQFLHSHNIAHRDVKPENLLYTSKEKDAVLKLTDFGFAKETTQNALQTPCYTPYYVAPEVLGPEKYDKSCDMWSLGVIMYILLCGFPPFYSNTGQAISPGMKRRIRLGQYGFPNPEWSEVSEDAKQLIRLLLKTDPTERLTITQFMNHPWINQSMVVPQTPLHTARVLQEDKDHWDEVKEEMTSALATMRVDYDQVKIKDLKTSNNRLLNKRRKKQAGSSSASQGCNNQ
# Read-out: enzyme activity
# Action: inhibitor
# Concentration: 0.5 µM
# Baseline: control
Compound,remaining activity
O=C1NC(=O)/C(=C/c2ccc3c(c2)OC(F)(F)O3)S1,94.2%
COc1cc2c(N3CCN(C(=O)Nc4ccc(OC(C)C)cc4)CC3)ncnc2cc1OCCCN1CCCCC1,103%
COc1cc2c(Nc3ccc(Br)cc3F)ncnc2cc1OCC1CCN(C)CC1,98.5%
CCN(CC)CCCCN1c2ccccc2Oc2ccc(Cl)cc21,105%
Nc1nc(Nc2ccc(S(N)(=O)=O)cc2)nn1C(=S)Nc1c(F)cccc1F,89.6%

# Study 4
# Target: DDB1- and CUL4-associated factor 1 (DCAF1, Homo sapiens, UniProt Q9Y4B6)
# Sequence of UniProt Q9Y4B6 (whole entry, looked up): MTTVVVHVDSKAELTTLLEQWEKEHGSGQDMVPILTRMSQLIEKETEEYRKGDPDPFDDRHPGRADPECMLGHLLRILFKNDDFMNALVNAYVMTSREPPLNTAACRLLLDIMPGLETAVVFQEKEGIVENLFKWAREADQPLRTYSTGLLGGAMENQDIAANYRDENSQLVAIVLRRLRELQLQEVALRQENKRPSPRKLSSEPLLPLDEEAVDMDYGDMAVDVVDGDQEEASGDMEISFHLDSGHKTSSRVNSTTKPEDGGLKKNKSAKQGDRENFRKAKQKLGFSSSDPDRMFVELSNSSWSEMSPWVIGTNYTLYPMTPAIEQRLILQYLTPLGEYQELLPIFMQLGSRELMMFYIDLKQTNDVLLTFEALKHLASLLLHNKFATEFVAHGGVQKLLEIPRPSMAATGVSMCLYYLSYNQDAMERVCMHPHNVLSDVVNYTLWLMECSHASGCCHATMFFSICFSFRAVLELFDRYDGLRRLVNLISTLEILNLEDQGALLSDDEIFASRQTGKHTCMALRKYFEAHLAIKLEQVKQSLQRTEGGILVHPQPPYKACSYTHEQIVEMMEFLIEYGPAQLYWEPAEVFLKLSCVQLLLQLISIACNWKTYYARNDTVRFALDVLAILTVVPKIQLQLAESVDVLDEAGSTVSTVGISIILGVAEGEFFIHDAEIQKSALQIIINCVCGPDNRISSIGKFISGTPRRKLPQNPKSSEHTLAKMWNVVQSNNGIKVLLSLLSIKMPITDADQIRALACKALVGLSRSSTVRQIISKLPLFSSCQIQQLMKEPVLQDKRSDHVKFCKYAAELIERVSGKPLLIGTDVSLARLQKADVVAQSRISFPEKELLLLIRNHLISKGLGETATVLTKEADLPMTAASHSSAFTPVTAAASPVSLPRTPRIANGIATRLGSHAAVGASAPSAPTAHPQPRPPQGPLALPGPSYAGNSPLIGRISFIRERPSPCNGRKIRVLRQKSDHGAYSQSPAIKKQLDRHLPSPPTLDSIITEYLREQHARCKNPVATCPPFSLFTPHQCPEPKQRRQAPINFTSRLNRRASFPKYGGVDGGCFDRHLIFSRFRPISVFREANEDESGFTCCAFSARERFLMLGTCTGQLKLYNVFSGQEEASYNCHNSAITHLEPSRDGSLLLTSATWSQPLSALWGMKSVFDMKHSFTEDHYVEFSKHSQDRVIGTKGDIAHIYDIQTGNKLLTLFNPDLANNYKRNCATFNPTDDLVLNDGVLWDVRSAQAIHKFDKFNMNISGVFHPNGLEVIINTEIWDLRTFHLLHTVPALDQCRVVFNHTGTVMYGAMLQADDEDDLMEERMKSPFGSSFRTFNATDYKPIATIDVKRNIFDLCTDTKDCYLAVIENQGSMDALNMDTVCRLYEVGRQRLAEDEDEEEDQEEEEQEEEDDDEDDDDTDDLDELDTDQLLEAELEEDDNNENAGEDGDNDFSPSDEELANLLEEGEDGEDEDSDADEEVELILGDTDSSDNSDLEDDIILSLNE
# Technique: SPR
Compound,association rate constant
C[C@@H]1CN(c2ccc(-c3cc(C(=O)NCCOCCOCCOCCOCCOCCOCCNC(=O)/C=C/c4[nH]cc(C(=O)N[C@@H](CC(N)=O)c5ccc(F)c(Cl)c5)c4-c4ccc(Cl)cc4F)ccc3F)cc2NC(=O)c2ccc(F)cc2C(F)(F)F)C[C@H](C)N1C,446000 M⁻¹ s⁻¹
C[C@@H]1CN(c2ccc(-c3cc(C(=O)NCCCNC(=O)/C=C/c4[nH]cc(C(=O)N[C@@H](CC(N)=O)c5ccc(F)c(Cl)c5)c4-c4ccc(Cl)cc4F)ccc3F)cc2NC(=O)c2c[nH]c(=O)cc2C(F)(F)F)C[C@H](C)N1C,53600 M⁻¹ s⁻¹
C[C@@H]1CN(c2ccc(-c3cc(C(=O)NCCOCCOCCOCCOCCNC(=O)Cn4cc(-c5[nH]cc(C(=O)N[C@@H](CC(N)=O)c6ccc(F)c(Cl)c6)c5-c5ccc(Cl)cc5F)cn4)ccc3F)cc2NC(=O)c2c[nH]c(=O)cc2C(F)(F)F)C[C@H](C)N1C,159000 M⁻¹ s⁻¹

# Study 5
# SMILES: NS(=O)(=O)c1cc(NC(=O)C2(c3ccccc3Cl)CC2)ccc1Oc1cccc(Cl)c1
# Concentration: 1 µM
target,test,remaining binding
"MAP2K4 (Homo sapiens, UniProt P45985)","cell-free assay, competition with immobilised ligand",100%
"CSNK1D (Homo sapiens, UniProt P48730)","cell-free assay, competition with immobilised ligand",83%
"MAP3K19 (Homo sapiens, UniProt Q56UN5)","cell-free assay, competition with immobilised ligand",70%
"LIM domain kinase 2 (LIMK2, Homo sapiens, UniProt P53671)","cell-free assay, competition with immobilised ligand",82%
"EGFR (Homo sapiens, UniProt P00533, L858R)","cell-free assay, competition with immobilised ligand",79%
"MAP3K6 (Homo sapiens, UniProt O95382)","cell-free assay, competition with immobilised ligand",100%
"Ribosomal protein S6 kinase alpha-2, N-terminal kinase domain (RPS6KA2, Homo sapiens, UniProt Q15349)","cell-free assay, competition with immobilised ligand",91%
"STK10 (Homo sapiens, UniProt O94804)","cell-free assay, competition with immobilised ligand",69%
"Non-receptor tyrosine-protein kinase TYK2, JH1 (TYK2, Homo sapiens, UniProt P29597)","cell-free assay, competition with immobilised ligand",100%
"MARK4 (Homo sapiens, UniProt Q96L34)","cell-free assay, competition with immobilised ligand",82%
"Receptor-type tyrosine-protein kinase FLT3, autoinhibited (FLT3, Homo sapiens, UniProt P36888)","cell-free assay, competition with immobilised ligand",70%
"MAP3K3 (Homo sapiens, UniProt Q99759)","cell-free assay, competition with immobilised ligand",100%
"DMPK (Homo sapiens, UniProt Q09013)","cell-free assay, competition with immobilised ligand",79%
"Ribosomal protein S6 kinase alpha-4, N-terminal kinase domain (RPS6KA4, Homo sapiens, UniProt O75676)","cell-free assay, competition with immobilised ligand",70%
"MET (Homo sapiens, UniProt P08581, M1250T)","cell-free assay, competition with immobilised ligand",68%
"BMPR2 (Homo sapiens, UniProt Q13873)","cell-free assay, competition with immobilised ligand",100%
"MAP2K1 (Homo sapiens, UniProt Q02750)","cell-free assay, competition with immobilised ligand",88%
"MAP3K15 (Homo sapiens, UniProt Q6ZN16)","cell-free assay, competition with immobilised ligand",86%
"CSNK1A1L (Homo sapiens, UniProt Q8N752)","cell-free assay, competition with immobilised ligand",84%
"CDK19 (Homo sapiens, UniProt Q9BWU1)",competition binding,85%
"MAP3K1 (Homo sapiens, UniProt Q13233)","cell-free assay, competition with immobilised ligand",100%
"MAP3K4 (Homo sapiens, UniProt Q9Y6R4)","cell-free assay, competition with immobilised ligand",94%
"BMP2K (Homo sapiens, UniProt Q9NSY1)","cell-free assay, competition with immobilised ligand",74%
"STK11 (Homo sapiens, UniProt Q15831)","cell-free assay, competition with immobilised ligand",100%
"CDC42BPB (Homo sapiens, UniProt Q9Y5S2)","cell-free assay, competition with immobilised ligand",62%

# Excerpt of the above (study 1):
target,test,setting,normalized current
ANO1 del476-501/E649A,"chloride current, inhibitor, whole-cell voltage clamp","3 µM, E623A mutant",1
ANO1 del476-501/R541A,"chloride current, whole-cell voltage clamp","10 µM, membrane voltage 0 mV, together with: 4 µM Ca2+ (saturating)",-0.0042
"Anoctamin-1 (ANO1, Homo sapiens, UniProt Q5XXA6, del476-501/E659A/K629A)","chloride current, inside-out patch clamp","30 µM, membrane voltage -20 mV",-0.122
ANO1 del476-501/E649A,"ion current, inside-out patch clamp","30 µM, E623A mutant at 0 mV",-0.0002
"Anoctamin-1 (ANO1, Homo sapiens, UniProt Q5XXA6, del476-501/K629A)","chloride current, inside-out patch clamp","30 µM, membrane voltage 0 mV",0.0008
ANO1 del476-501/E649A,"chloride current, inhibitor, whole-cell voltage clamp","100 µM, E623A mutant",0.47
